Measurements of several laboratories.
± gives the spread as reported. Converted amounts (≈) assume the structure as drawn.
Organism: Candida albicans

SMILES	test	test system	setting	how to read	measurement	value
COC(=O)[C@H](C)NC(=O)c1ccccc1NC(=O)[C@H](Cc1ccc(OC(C)(C)C)cc1)N(C)C(=O)[C@@H](NC(=O)OCc1ccccc1)C(C)C	potentiator, broth microdilution	ATCC 90029	8.0 µg/mL, added: amphotericin B	reference: amphotericin B alone	fold potentiation	32
CC[C@H]1OC(=O)[C@H](C)C(=O)[C@H](C)[C@@H](O[C@@H]2O[C@H](C)C[C@H](N(C)C)[C@H]2O)[C@](C)(OC)C[C@@H](C)C(=O)[C@H](C)[C@H]2N(CCCCn3cnc(-c4cccnc4)c3)C(=O)O[C@]12C	microbial growth	ATCC90028	–	–	MIC	> 32 µg/mL
N=C(N)NCCC[C@@H]1NC(=O)[C@H](CCCNC(=N)N)NC(=O)[C@@H](C(c2ccccc2)c2ccccc2)NC(=O)[C@H](Cc2c[nH]c3ccccc23)NC(=O)[C@@H](C(c2ccccc2)c2ccccc2)NC(=O)[C@@H](CCCNC(=N)N)NC(=O)[C@@H](CCCNC(=N)N)NC1=O	–	ATCC 60193	4 x MIC, 8 h	–	reduction of viable cells	> 85%
OC(Cn1cncn1)(Cn1cc(-[c-]2cccc2)nn1)c1ccc(F)cc1F.[Cl-].[Co+3].c1cc[cH-]c1 (racemic)	EUCAST	SC5314	48 h	–	MIC50	100 µM
CC(C)[C@H](NC(=O)OCc1ccccc1)C(=O)N(C)[C@@H](Cc1ccc(OC(C)(C)C)cc1)C(=O)Nc1ccccc1C(=O)N[C@@H](C)C(=O)O	potentiator, broth microdilution	ATCC 90029	16.0 µg/mL, added: amphotericin B	reference: amphotericin B alone	fold potentiation	16
COC(=O)c1cnc(-c2cnccn2)cc1C(=O)OC.COC(=O)c1cnc(-c2cnccn2)cc1C(=O)OC.F[P-](F)(F)(F)(F)F.[Ag+]	biofilm formation, crystal violet staining	ATCC 10231	0.44 µg/mL	–	inhibition	32 ± 5%
N=C(N)NCCC[C@@H]1NC(=O)[C@H](CCCNC(=N)N)NC(=O)[C@H](CCCNC(=N)N)NC(=O)[C@@H](CCCNC(=N)N)NC(=O)[C@H](Cc2ccc3ccccc3c2)NC(=O)[C@H](Cc2ccc3ccccc3c2)NC(=O)[C@H](Cc2ccc3ccccc3c2)NC1=O	fungal growth	–	–	–	MIC	8 µg/mL (≈ 6.58 µM)
CC[C@H]1OC(=O)[C@H](C)[C@@H](OC(=O)Cc2cccc3ccccc23)[C@H](C)[C@@H](O[C@@H]2O[C@H](C)C[C@H](N(C)C)[C@H]2O)[C@](C)(OC)C[C@@H](C)C(=O)[C@H](C)[C@@H](O)[C@]1(C)O	microbial growth	ATCC90028	–	–	MIC	> 32 µg/mL

Excerpt of the above:
SMILES	test	test system	setting	how to read	measurement	value
OC(Cn1cncn1)(Cn1cc(-[c-]2cccc2)nn1)c1ccc(F)cc1F.[Cl-].[Co+3].c1cc[cH-]c1 (racemic)	EUCAST	SC5314	48 h	–	MIC50	100 µM
